Results collected from several papers.
Compare with care: the assays were run in different laboratories. ± gives the spread as reported.
Sequence of UniProt Q15858 (whole entry, looked up): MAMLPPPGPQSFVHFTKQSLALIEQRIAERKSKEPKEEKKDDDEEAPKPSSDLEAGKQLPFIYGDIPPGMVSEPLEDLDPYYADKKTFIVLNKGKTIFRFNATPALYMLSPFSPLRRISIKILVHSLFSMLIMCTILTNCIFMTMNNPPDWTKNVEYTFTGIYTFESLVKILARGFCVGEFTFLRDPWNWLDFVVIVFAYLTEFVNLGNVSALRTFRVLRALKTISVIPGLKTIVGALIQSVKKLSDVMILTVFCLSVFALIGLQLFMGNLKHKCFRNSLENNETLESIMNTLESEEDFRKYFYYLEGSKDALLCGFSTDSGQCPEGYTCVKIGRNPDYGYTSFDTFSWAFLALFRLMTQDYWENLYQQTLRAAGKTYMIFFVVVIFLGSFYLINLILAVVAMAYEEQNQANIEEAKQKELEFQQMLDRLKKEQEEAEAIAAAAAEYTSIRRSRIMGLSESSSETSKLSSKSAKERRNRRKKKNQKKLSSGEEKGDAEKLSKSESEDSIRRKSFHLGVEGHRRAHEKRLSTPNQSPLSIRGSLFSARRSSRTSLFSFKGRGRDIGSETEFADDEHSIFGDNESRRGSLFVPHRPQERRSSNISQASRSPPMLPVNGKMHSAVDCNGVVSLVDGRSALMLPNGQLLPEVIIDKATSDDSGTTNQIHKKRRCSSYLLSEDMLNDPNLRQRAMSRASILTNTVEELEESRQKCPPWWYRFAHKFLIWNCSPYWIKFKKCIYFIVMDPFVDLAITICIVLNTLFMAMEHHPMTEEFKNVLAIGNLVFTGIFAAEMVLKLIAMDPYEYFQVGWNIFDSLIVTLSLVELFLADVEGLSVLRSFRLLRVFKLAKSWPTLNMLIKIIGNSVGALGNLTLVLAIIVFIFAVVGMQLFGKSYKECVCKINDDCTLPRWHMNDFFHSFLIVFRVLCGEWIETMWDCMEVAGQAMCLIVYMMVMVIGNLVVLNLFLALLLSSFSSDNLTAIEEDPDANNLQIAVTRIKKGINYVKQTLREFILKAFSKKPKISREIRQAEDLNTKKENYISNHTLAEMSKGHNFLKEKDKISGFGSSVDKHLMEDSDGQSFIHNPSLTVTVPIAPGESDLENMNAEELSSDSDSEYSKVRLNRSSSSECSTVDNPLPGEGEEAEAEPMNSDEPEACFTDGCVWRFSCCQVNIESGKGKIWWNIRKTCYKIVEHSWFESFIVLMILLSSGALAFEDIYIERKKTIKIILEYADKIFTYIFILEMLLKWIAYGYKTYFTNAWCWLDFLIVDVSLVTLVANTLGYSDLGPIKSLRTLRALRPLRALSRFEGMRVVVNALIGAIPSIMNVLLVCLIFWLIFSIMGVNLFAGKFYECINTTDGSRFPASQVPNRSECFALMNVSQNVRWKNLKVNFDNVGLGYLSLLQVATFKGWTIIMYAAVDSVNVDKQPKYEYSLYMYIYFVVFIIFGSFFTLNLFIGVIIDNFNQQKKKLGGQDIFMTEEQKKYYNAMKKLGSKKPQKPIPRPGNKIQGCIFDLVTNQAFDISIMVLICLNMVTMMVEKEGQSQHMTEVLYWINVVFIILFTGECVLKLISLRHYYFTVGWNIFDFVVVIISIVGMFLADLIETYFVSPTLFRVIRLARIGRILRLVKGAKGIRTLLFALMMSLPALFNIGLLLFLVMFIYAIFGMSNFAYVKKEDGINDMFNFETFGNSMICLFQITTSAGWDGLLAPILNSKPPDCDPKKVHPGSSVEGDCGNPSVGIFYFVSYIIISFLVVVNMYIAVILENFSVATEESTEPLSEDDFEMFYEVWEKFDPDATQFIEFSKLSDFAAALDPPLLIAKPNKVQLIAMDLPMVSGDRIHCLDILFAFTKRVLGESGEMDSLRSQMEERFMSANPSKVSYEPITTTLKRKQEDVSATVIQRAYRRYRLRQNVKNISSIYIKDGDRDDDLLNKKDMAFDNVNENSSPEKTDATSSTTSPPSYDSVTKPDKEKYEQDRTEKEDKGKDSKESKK

SMILES	target or system	test	test system	setting	scale	endpoint	value
CN[C@@H]1[C@H](O)[C@H](NC)[C@H]2O[C@]3(O)[C@H](O[C@@H]2[C@H]1O)O[C@H](C)C[C@H]3NC(=O)Cc1cc(Cl)ccn1	Bacillus anthracis	microbial growth	STERNE34F2	–	–	MIC	25 µg/mL
CC[C@H](C)[C@H](NC(=O)[C@H](CCCN)NC(=O)[C@H](CC(=O)O)NC(=O)[C@H](CC(C)C)NC(=O)C(C)(CC(C)C)NC(=O)[C@@H](NC(=O)[C@H](CO)NC(=O)[C@H](Cc1ccc(O)cc1)NC(=O)[C@H](CC(=O)O)NC(=O)[C@H](CO)NC(=O)[C@@H](NC(=O)[C@H](Cc1ccccc1)NC(=O)[C@@H](NC(=O)CNC(=O)[C@H](CCC(=O)O)NC(=O)C(C)(C)NC(=O)[C@@H](N)Cc1ccc(O)cc1)[C@@H](C)O)[C@@H](C)CC)[C@@H](C)CC)C(=O)N[C@@H](Cc1c[nH]cn1)C(=O)N[C@@H](CCC(N)=O)C(=O)NC(C)(C)C(=O)N[C@@H](CC(=O)O)C(=O)N[C@@H](Cc1ccccc1)C(=O)N[C@H](C(=O)N[C@@H](CCC(=O)O)C(=O)N[C@@H](Cc1ccc(O)cc1)C(=O)N[C@@H](CCCCNC(=O)COCCOCCNC(=O)COCCOCCNC(=O)CC[C@H](NC(=O)CCCCCCCCCCCCCCCCCCC(=O)O)C(=O)O)C(=O)N[C@@H](CC(C)C)C(=O)N[C@@H](CCC(=O)O)C(=O)NCC(=O)NCC(=O)N1CCC[C@H]1C(=O)N[C@@H](CO)C(=O)N[C@@H](CO)C(=O)NCC(=O)N[C@@H](C)C(=O)N1CCC[C@H]1C(=O)N1CCC[C@H]1C(=O)N1CCC[C@H]1C(=O)N[C@@H](CO)C(N)=O)C(C)C (stereo partly shown)	–	–	human, type 2 diabetes	subcutaneous, 25 mg single dose, geometric mean	–	terminal half-life	12.2 days
Cc1cccc(C)c1SCC1OC(OC2C(N)CC(N)C(OC3OC(CN)C(O)CC3N)C2O)C(O)C(N)C1O (stereo not shown)	Bacillus anthracis	–	Sterne 34F2	–	–	MIC	37.5 µg/mL
ONCc1ccc(F)cc1	Bacillus anthracis	–	Sterne 7700 pXO1-/pXO2-	8 h	–	MIC50	< 15 µg/mL
CC(C)C[C@@H]1NC(=O)[C@H](CCCNC(=N)N)NC(=O)[C@@H]2CCCN2C(=O)[C@@H]2CSSC[C@H](NC(=O)CNC(=O)[C@@H]3CCCN3C(=O)[C@H](CCCCN)NC(=O)[C@H](CC(=O)O)NC(=O)[C@@H](NC(=O)CN)C(C)C)C(=O)N[C@@H](CCCNC(=N)N)C(=O)N[C@@H](Cc3ccc(O)cc3)C(=O)N[C@@H](CC(C)C)C(=O)N[C@@H](Cc3ccccc3)C(=O)NCC(=O)NCC(=O)N[C@H]3CSSC[C@H](NC(=O)CNC1=O)C(=O)N[C@@H](CCCCN)C(=O)NCC(=O)N[C@@H](CCCCN)C(=O)NCC(=O)N[C@@H](Cc1c[nH]cn1)C(=O)N[C@@H](CC(=O)O)C(=O)N[C@@H](Cc1ccc(O)cc1)C(=O)N[C@H](C(=O)N[C@@H](C)C(=O)N[C@@H](Cc1c[nH]c4ccccc14)C(=O)N[C@@H](CC(=O)O)C(=O)NCC(=O)N[C@H](C(=O)N[C@@H](Cc1ccccc1)C(=O)N[C@@H](CO)C(=O)N[C@@H](CC(=O)O)C(=O)O)[C@@H](C)O)CSSC[C@H](NC(=O)[C@H](CC(=O)O)NC(=O)[C@H](CC(=O)O)NC(=O)[C@H](CC(=O)O)NC(=O)[C@H](CO)NC(=O)[C@H](CCCCN)NC3=O)C(=O)N2	SCN9A (Homo sapiens, UniProt Q15858)	sodium current, automated patch clamp	HEK293	1 µM, 50 ms depolarizing pulse	relative to: compound over control	inactivation time constant ratio	4.27 ± 0.51
CN[C@@H]1[C@H](O)[C@H](NC)[C@H]2O[C@]3(O)[C@H](O[C@@H]2[C@H]1O)O[C@H](C)C[C@H]3NC(=O)CNC(C)(C)C	Bacillus anthracis	microbial growth	STERNE34F2	–	–	MIC	50 µg/mL
CC[C@H](C)[C@H](NC(=O)[C@H](CCCCN)NC(=O)[C@H](CCCCN)NC(=O)[C@H](CC(C)C)NC(=O)[C@H](Cc1c[nH]c2ccccc12)NC(=O)CN)C(=O)NCC(=O)N[C@@H](CCCCN)C(=O)N[C@@H](CCCCN)C(=O)N[C@H](C(=O)N[C@@H](CCC(=O)O)C(=O)N[C@@H](CCCNC(=N)N)C(=O)N[C@H](C(=O)NCC(=O)N[C@@H](CCC(N)=O)C(=O)N[C@@H](Cc1c[nH]cn1)C(=O)N[C@H](C(=O)N[C@@H](CCCNC(=N)N)C(=O)N[C@@H](CC(=O)O)C(=O)N[C@@H](C)C(=O)N[C@H](C(=O)N[C@H](C(=O)N[C@@H](CCC(N)=O)C(=O)N[C@H](C(=O)N[C@H](C(=O)NCC(=O)N[C@H](C(=O)N[C@@H](C)C(=O)N[C@@H](CCC(N)=O)C(=O)N[C@@H](CCC(N)=O)C(=O)N[C@@H](C)C(=O)N[C@@H](C)C(=O)N[C@@H](CC(N)=O)C(=O)N[C@H](C(=O)N[C@@H](C)C(=O)N[C@@H](C)C(=O)N[C@H](C(=O)N[C@@H](CC(C)C)C(=O)N[C@@H](CCCCN)C(N)=O)[C@@H](C)O)C(C)C)C(C)C)[C@@H](C)CC)[C@@H](C)O)[C@@H](C)CC)[C@@H](C)O)[C@@H](C)O)C(C)C)[C@@H](C)CC	Escherichia coli, Acinetobacter baumannii	broth microdilution	–	150 mM NaCl, 10% human serum	–	MIC	0.031 µg/mL
CC(/C=C/C(O)=C1/C(=O)CNC1=O)=C\[C@@H](C)[C@H]1O[C@@]2(C)O[C@H](C[C@@H]3O[C@@]32C)[C@@H]1C	Bacillus anthracis	–	34F2	–	–	MIC	25 µM
CCCCCCSCC1OC(OC2C(N)CC(N)C(OC3OC(CN)C(O)CC3N)C2O)C(O)C(N)C1O (stereo not shown)	Bacillus anthracis	–	Sterne 34F2	–	–	MIC	150 µg/mL
CC1(C)S[C@@H]2[C@H](NC(=O)[C@H](NC(=O)C3=C(O)C(c4ccccc4F)NC3=O)c3ccccc3)C(=O)N2[C@H]1C(=O)O (stereo partly shown)	Bacillus anthracis	–	Sterne	–	–	MIC	3.13 µg/mL
CN[C@@H]1[C@H](O)[C@H](NC)[C@H]2O[C@]3(O)[C@H](O[C@@H]2[C@H]1O)O[C@H](C)C[C@H]3NC(=O)Cc1cscn1	Bacillus anthracis	microbial growth	STERNE34F2	–	–	MIC	1.6 µg/mL
CC(/C=C/C(O)=C1/C(=O)CNC1=O)=C\[C@@H](C)[C@H]1O[C@@]2(C)O[C@H](C(=O)[C@@H]3O[C@@]32CO)[C@@H]1C	Bacillus anthracis	–	34F2	–	–	MIC	6.25 µM
CCCCCCCCCCCCCCCC(=O)N[C@@H](CCC(=O)NCCOCCOCCC(=O)NCCOCCOCCC(=O)NCCCC[C@H](NC(=O)[C@H](CC(=O)O)NC(=O)[C@H](CC(C)C)NC(=O)[C@H](Cc1ccc(O)cc1)NC(=O)[C@H](CCCCN)NC(=O)[C@H](CO)NC(=O)[C@H](Cc1ccc(O)cc1)NC(=O)[C@H](CC(=O)O)NC(=O)[C@H](CO)NC(=O)[C@@H](NC(=O)[C@H](Cc1ccccc1)NC(=O)[C@@H](NC(=O)CNC(=O)[C@H](CCC(N)=O)NC(=O)[C@@H](CO)NC(=O)[C@@H](N)Cc1c[nH]cn1)[C@@H](C)O)[C@@H](C)O)C(=O)N[C@@H](CCCNC(=N)N)C(=O)N[C@@H](CCCNC(=N)N)C(=O)N[C@@H](C)C(=O)N[C@@H](CCC(N)=O)C(=O)N[C@@H](CC(=O)O)C(=O)N[C@@H](Cc1ccccc1)C(=O)N[C@H](C(=O)N[C@@H](CCC(N)=O)C(=O)N[C@@H](Cc1c[nH]c2ccccc12)C(=O)N[C@@H](CC(C)C)C(=O)N[C@@H](CC(C)C)C(=O)N[C@@H](CC(N)=O)C(=O)N[C@H](C(=O)NCC(=O)NCC(=O)N1CCC[C@H]1C(=O)N[C@@H](CO)C(=O)N[C@@H](CO)C(=O)NCC(=O)N[C@@H](C)C(=O)N1CCC[C@H]1C(=O)N1CCC[C@H]1C(=O)N1CCC[C@H]1C(=O)N[C@@H](CO)C(N)=O)[C@@H](C)O)C(C)C)C(=O)O	–	item: CK	Sprague-Dawley rat, male	subcutaneous, 20 µg/kg once daily, 14 days	–	serum enzyme activity	622 ± 159 U/L
CCCCCCCCCCCC[S+]([O-])CC1OC(OC2C(N)CC(N)C(OC3OC(CN)C(O)CC3N)C2O)C(O)C(N)C1O (mixture of isomers)	Bacillus anthracis	–	Sterne 34F2	–	–	MIC	2.3 µg/mL
CC(C=CC(O)=C1C(=O)CNC1=O)=CC(C)C1OC2(C)OC(C1C)C(O)C1OC12C (stereo not shown)	Bacillus anthracis	–	34F2	–	–	MIC	50 µM
CCCCCCCCCCCCCCCC(=O)N[C@@H](CCC(=O)NCCCC[C@H](NC(=O)[C@H](CC(=O)O)NC(=O)[C@H](CO)NC(=O)[C@@H](NC(=O)[C@H](Cc1ccccc1)NC(=O)[C@@H](NC(=O)CNC(=O)[C@H](CCC(N)=O)NC(=O)[C@H](C)NC(=O)[C@@H](Cc1ccc(O)cc1)NC(C)=O)[C@@H](C)O)[C@@H](C)O)C(=O)N[C@@H](CO)C(=O)N[C@@H](CCCCN)C(=O)N[C@@H](Cc1ccc(O)cc1)C(=O)N[C@@H](CC(C)C)C(=O)N[C@@H](CC(=O)O)C(=O)N[C@@H](CCC(=O)O)C(=O)N[C@@H](CCCNC(=N)N)C(=O)N[C@@H](C)C(=O)N[C@@H](C)C(=O)N[C@@H](CCC(N)=O)C(=O)N[C@@H](CC(=O)O)C(=O)N[C@@H](Cc1ccccc1)C(=O)N[C@H](C(=O)N[C@@H](CCC(N)=O)C(=O)N[C@@H](Cc1c[nH]c2ccccc12)C(=O)N[C@@H](CC(C)C)C(=O)N[C@@H](CC(C)C)C(=O)N[C@@H](CCC(=O)O)C(=O)NCC(=O)NCC(=O)N1CCC[C@H]1C(=O)N[C@@H](CO)C(=O)N[C@@H](CO)C(=O)NCC(=O)N[C@@H](C)C(=O)N1CCC[C@H]1C(=O)N1CCC[C@H]1C(=O)N1CCC[C@H]1C(=O)N[C@@H](CO)C(N)=O)C(C)C)C(=O)O	–	–	male cynomolgus monkey, plasma	subcutaneous, 0.0211 mg/kg	–	bioavailability	36.1%

For quick reference, copied from above:
SMILES	target or system	test	test system	setting	scale	endpoint	value
CN[C@@H]1[C@H](O)[C@H](NC)[C@H]2O[C@]3(O)[C@H](O[C@@H]2[C@H]1O)O[C@H](C)C[C@H]3NC(=O)Cc1cc(Cl)ccn1	Bacillus anthracis	microbial growth	STERNE34F2	–	–	MIC	25 µg/mL
CC[C@H](C)[C@H](NC(=O)[C@H](CCCN)NC(=O)[C@H](CC(=O)O)NC(=O)[C@H](CC(C)C)NC(=O)C(C)(CC(C)C)NC(=O)[C@@H](NC(=O)[C@H](CO)NC(=O)[C@H](Cc1ccc(O)cc1)NC(=O)[C@H](CC(=O)O)NC(=O)[C@H](CO)NC(=O)[C@@H](NC(=O)[C@H](Cc1ccccc1)NC(=O)[C@@H](NC(=O)CNC(=O)[C@H](CCC(=O)O)NC(=O)C(C)(C)NC(=O)[C@@H](N)Cc1ccc(O)cc1)[C@@H](C)O)[C@@H](C)CC)[C@@H](C)CC)C(=O)N[C@@H](Cc1c[nH]cn1)C(=O)N[C@@H](CCC(N)=O)C(=O)NC(C)(C)C(=O)N[C@@H](CC(=O)O)C(=O)N[C@@H](Cc1ccccc1)C(=O)N[C@H](C(=O)N[C@@H](CCC(=O)O)C(=O)N[C@@H](Cc1ccc(O)cc1)C(=O)N[C@@H](CCCCNC(=O)COCCOCCNC(=O)COCCOCCNC(=O)CC[C@H](NC(=O)CCCCCCCCCCCCCCCCCCC(=O)O)C(=O)O)C(=O)N[C@@H](CC(C)C)C(=O)N[C@@H](CCC(=O)O)C(=O)NCC(=O)NCC(=O)N1CCC[C@H]1C(=O)N[C@@H](CO)C(=O)N[C@@H](CO)C(=O)NCC(=O)N[C@@H](C)C(=O)N1CCC[C@H]1C(=O)N1CCC[C@H]1C(=O)N1CCC[C@H]1C(=O)N[C@@H](CO)C(N)=O)C(C)C (stereo partly shown)	–	–	human, type 2 diabetes	subcutaneous, 25 mg single dose, geometric mean	–	terminal half-life	12.2 days
